# Experimental data from different studies.
# Lines come from different studies, so protocols differ.
SMILES,test,system,setting,scale,measurement,result
C[C@@H](Oc1ccc(S(C)(=O)=O)cc1C(=O)N1C[C@@H]2C[C@]2(c2cc(C(F)(F)F)on2)C1)C(F)(F)F,,human,"oral, 25 mg",,incidence of Conjunctivitis,16.7%
CO[C@H]1/C=C/O[C@@]2(C)Oc3c(C)c(O)c4c(O)c(c(/C=N/N5CCN(C)CC5)c(O)c4c3C2=O)NC(=O)/C(C)=C\C=C\[C@H](C)[C@H](O)[C@@H](C)[C@@H](O)[C@@H](C)[C@H](OC(C)=O)[C@@H]1C,,healthy human volunteers,"oral, 600 mg, itraconazole cohort, with: gepotidacin 1500 mg",,incidence of cardiac disorders,0%
CC[C@H](C)[C@H](NC(=O)[C@H](Cc1ccccc1)NC(=O)[C@H](CCC(=O)O)NC(=O)[C@H](CCCCNC(=O)COCCOCCNC(=O)COCCOCCNC(=O)CC[C@H](NC(=O)CCCCCCCCCCCCCCCCC(=O)O)C(=O)O)NC(=O)[C@H](C)NC(=O)[C@H](C)NC(=O)[C@H](CCC(N)=O)NC(=O)CNC(=O)[C@H](CCC(=O)O)NC(=O)[C@H](CC(C)C)NC(=O)[C@H](Cc1ccc(O)cc1)NC(=O)[C@H](CO)NC(=O)[C@H](CO)NC(=O)[C@@H](NC(=O)[C@H](CC(=O)O)NC(=O)[C@H](CO)NC(=O)[C@@H](NC(=O)[C@H](Cc1ccccc1)NC(=O)[C@@H](NC(=O)CNC(=O)[C@H](CCC(=O)O)NC(=O)C(C)(C)NC(=O)[C@@H](N)Cc1cnc[nH]1)[C@@H](C)O)[C@@H](C)O)C(C)C)C(=O)N[C@@H](C)C(=O)N[C@@H](Cc1c[nH]c2ccccc12)C(=O)N[C@@H](CC(C)C)C(=O)N[C@H](C(=O)N[C@@H](CCCNC(=N)N)C(=O)NCC(=O)N[C@@H](CCCNC(=N)N)C(=O)NCC(=O)O)C(C)C,,"human, type 2 diabetes","dose not given, blood glucose-confirmed, during treatment",reference: subjects,incidence of severe hypoglycaemia,0%
CC1(C)CC[C@]2(NC(=O)C(C)(F)F)CC[C@]3(C)[C@H](C(=O)C=C4[C@@]5(C)C=C(C#N)C(=O)C(C)(C)[C@@H]5CC[C@]43C)[C@@H]2C1,,human,"oral, dose not given",,incidence of urinary retention,0%
CN1CCc2nc(C(=O)N[C@@H]3C[C@@H](C(=O)N(C)C)CC[C@@H]3NC(=O)C(=O)Nc3ccc(Cl)cn3)sc2C1,"measured: headache, nausea, faecal occult blood",humans,ketoconazole interaction study,,incidence of each common adverse event,10%
CC(C)n1c(Nc2cccnc2)nc2cnc(Nc3ccc(N4CCN(C)CC4)cc3)nc21,,"healthy human, male","concentration not given, all three DDI studies",,incidence of oral ulcers TEAE,11.9%
CCC(C)n1ncn(-c2ccc(N3CCN(c4ccc(OCC5COC(Cn6cncn6)(c6ccc(Cl)cc6Cl)O5)cc4)CC3)cc2)c1=O (centres unmarked),,healthy human volunteers,"oral, 200 mg, compound alone cohort",,incidence of any adverse event,47%
Cn1cnc2ccc(Nc3c(F)ccc(NS(=O)(=O)N4CC(F)C4)c3Cl)c(Cl)c2c1=O,,human,"dose not given, monotherapy, first-in-human",reference: participants,incidence of blurred vision,4%

# A few entries again:
SMILES,test,system,setting,scale,measurement,result
CO[C@H]1/C=C/O[C@@]2(C)Oc3c(C)c(O)c4c(O)c(c(/C=N/N5CCN(C)CC5)c(O)c4c3C2=O)NC(=O)/C(C)=C\C=C\[C@H](C)[C@H](O)[C@@H](C)[C@@H](O)[C@@H](C)[C@H](OC(C)=O)[C@@H]1C,,healthy human volunteers,"oral, 600 mg, itraconazole cohort, with: gepotidacin 1500 mg",,incidence of cardiac disorders,0%
